Published values pooled from the literature.
Protocols differ between the studies behind these lines. Numbers after ± are the reported error.

Structure (SMILES) = C=CC(=O)Nc1cccc(Cn2ncc3cnc(Nc4cnn(CCOC)c4)nc32)c1; tested on = TSSK3 human; test = binding, KINOMEscan; setting = 100 nM; how to read = lower = stronger binding; measurement = percent of control; value = 94%
Structure (SMILES) = c1ccc(-c2n[nH]cc2-c2ccnc3ccccc23)nc1; tested on = SHA3 (Candida albicans); test = kinase binding, MIB/MS competition; system = Candida albicans lysate; setting = 1 µM; how to read = reference: DMSO; measurement = log2 fold change; value = -0.06
Structure (SMILES) = CN1CCCNC(=O)c2cccc(c2)C(=O)NCCCN(C)CCCNc2cccc3c2C(=O)c2cccc(c2C3=O)NCCC1; tested on = SAS; test = RNA-Seq, measured: WDR77 mRNA; setting = 1 µM, 6 h; how to read = reference: untreated cells; measurement = log2 fold change; value = -0.575
Structure (SMILES) = COC1CN([C@H]2CC[C@H]([C@@]3(C)Oc4c(Cl)cc(C(=O)NCc5c(SC)cc(C)[nH]c5=O)c(C)c4O3)CC2)C1; test = RNA-seq, measured: MDK; system = human, whole blood; setting = dose not given, 24 h; how to read = reference: pretreatment baseline; measurement = log2 fold change; value = 1.18
Structure (SMILES) = Oc1c(/N=N/c2ccccn2)ccc2ccccc12; tested on = Mus musculus; test = gene silencing, high-content imaging; system = LDR reporter GFP cells; setting = 30 h, retest run 2; measurement = Emax; value = 242%
Structure (SMILES) = COC1OC(C)C(O)C(OC2OC(C)C(O)C(OC3OC(C)C(O)C(OC4OC(C)C(O)C(OC5OC(C)C(O)C(OS(=O)(=O)O)C5OS(=O)(=O)O)C4OS(=O)(=O)O)C3OS(=O)(=O)O)C2OS(=O)(=O)O)C1OS(=O)(=O)O (stereo not shown); system = human plasma; setting = 128 µg/mL; measurement = prothrombin time; value = 14.7 ± 0.5 s
Structure (SMILES) = C[n+]1ccc(/C=N/NC(=O)N/N=C/c2cc[n+](C)cc2)cc1; tested on = hp2 hairpin duplex DNA; test = FRET melting; setting = 1 µM, with: ds26 10 µM; measurement = ΔTm; value = 0.3 ± 0.3 °C
Structure (SMILES) = CNS(=O)(=O)Nc1nccc(Cc2c(C)c3ccc(Oc4ncccc4F)cc3oc2=O)c1F; tested on = Huh-7; test = cell viability; setting = 7 days; measurement = IC50; value = > 1000 nM
Structure (SMILES) = O=C(N/N=C/c1cc[n+](CC2CC2)c2ccccc12)c1cncc(C(=O)N/N=C/c2cc[n+](CC3CC3)c3ccccc23)n1; tested on = hp2 hairpin duplex DNA; test = FRET melting; setting = 1 µM; measurement = ΔTm; value = 1.5 °C
Structure (SMILES) = Cc1ncsc1-c1ccc(C(C)NC(=O)C2CC(O)CN2C(=O)C(NC(=O)CCCCCCCCCCN2CCCC(Nc3ncc(Cl)c(Nc4ccccc4S(=O)(=O)C(C)C)n3)C2)C(C)(C)C)cc1 (stereo not shown); tested on = 22Rv1; test = RNA-seq, measured: MBP; setting = concentration not given; how to read = reference: DMSO; measurement = log2 fold change; value = -2.25
Structure (SMILES) = C[n+]1ccc(/C=N/NC(=O)c2ccc3ccc4ccc(C(=O)N/N=C/c5cc[n+](C)cc5)nc4c3n2)cc1; tested on = hp2 hairpin duplex DNA; test = FRET melting; setting = 1 µM, with: ds26 10 µM; measurement = ΔTm; value = 0.2 ± 0.3 °C
Structure (SMILES) = CC1=C/C(=N\N=C(/S)Nc2cccnc2)CC(C)(C)C1; tested on = Mus musculus; test = gene silencing, high-content imaging; system = LDR reporter GFP cells; setting = 30 h, confirmation, mean of two runs; measurement = Emax; value = 95%
Structure (SMILES) = C[n+]1ccc(/C=N/NC(=O)c2cc(C(=O)N/N=C/c3cc[n+](C)cc3)ncn2)cc1; tested on = hp2 hairpin duplex DNA; test = FRET melting; setting = 1 µM; measurement = ΔTm; value = 0.2 ± 0.1 °C
Structure (SMILES) = Nc1ncc(-c2cc(-c3cnn(CC(F)(F)F)c3)ncc2F)nc1C(=O)NC1CNCC(F)C1 (stereo not shown); tested on = MINK; test = KINOMEscan competition binding; setting = 1 µM; how to read = reference: DMSO control; measurement = remaining binding; value = 77%
Structure (SMILES) = C[n+]1ccc(/C=N/NC(=O)c2cncc(C(=O)N/N=C/c3cc[n+](C)cc3)n2)cc1; tested on = hp2 hairpin duplex DNA; test = FRET melting; setting = 1 µM, with: ds26 10 µM; measurement = ΔTm; value = 0 ± 0.1 °C
Structure (SMILES) = C=CC(=O)N1[C@@H](c2ccc3c(c2)OCO3)c2[nH]c3ccccc3c2C[C@H]1C(=O)N1CCN(C)CC1; tested on = human cyclin E1 wild type-3xFLAG:CDK2; test = co-IP with TMT proteomics, measured: SRP9; setting = concentration not given, P49458; how to read = reference: wild type DMSO; measurement = relative co-enrichment; value = 91%

Repeated from above:
Structure (SMILES) = C=CC(=O)Nc1cccc(Cn2ncc3cnc(Nc4cnn(CCOC)c4)nc32)c1; tested on = TSSK3 human; test = binding, KINOMEscan; setting = 100 nM; how to read = lower = stronger binding; measurement = percent of control; value = 94%
Structure (SMILES) = c1ccc(-c2n[nH]cc2-c2ccnc3ccccc23)nc1; tested on = SHA3 (Candida albicans); test = kinase binding, MIB/MS competition; system = Candida albicans lysate; setting = 1 µM; how to read = reference: DMSO; measurement = log2 fold change; value = -0.06
